Measured values pooled from the literature.
Numbered parts are unrelated; each lists some results of a single study. Substitutions count along the parent as printed.

Block 1
Target: RNA binding protein fox-1 homolog 2, RRM domain, GST-SBP tag (RBFOX2, Homo sapiens, UniProt O43251-10, residues 100-194)
Technique: RNA Bind-n-Seq
Molecule type: RNA
Sample: in vitro
Concentration: 365 nM
Notes: natural RNA segment, single round, ends assumed
Reference: no-protein control
Reading: higher = stronger binding
Constant ends, left off below: GGGAGUUCUACAGUCCGACGAUC … UGGAAUUCUCGGGUGCCAA
Construct (chain): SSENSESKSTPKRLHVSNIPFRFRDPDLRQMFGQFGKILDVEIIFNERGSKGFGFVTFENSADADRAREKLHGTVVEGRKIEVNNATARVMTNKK
Sequence | RBNS enrichment (R)
CCCUGCCCUUUAAUGCGCCCAAGUGACAGAACCAGGCUGAGUCCAGCUUGUCUGAGUCAGCUCAUCCCCCUCCAGCCAGGCCUGACCAGGGAUUCAUAGAGUUCCGGGCC | 0.335
CAAGAGAAUUUUUAAUUGUAAAUGCAGACUUGGGAAGGACUUGGACUUUUAACCUGGUUUUGCUUUUGCUUUUCCUGACUCCCUUUGCUCAGAGUCAGUUGCACACCAGU | 0.791
CAGGCCUUCAGGGUUAGAUCAUCUGUCAAGUGUCACCGAUGGGGACUUCUCAUGACCAGAGGGCUCUGCACCAGCAUCCCCAAAGAGCCAAGAAGGCCACCAUGCUUUUA | 0.279
AACAAUGGAACCCAAACAGAAGGAAGAAAGCCUUGAUACCAAAAUUGGGAGUGAGGAUGUGUCCAUUUGGACCAAACACUUUGUUUUGUUUUAUUUAGAUUUUGUUUUUC | 0.299
UGUCUUAAAUACUUGCACUAAAUAGUGCACUGCAAGACCAGAAAAUUUUACAAUAUUUUUUCUUUACAAUAUGUUCUGUAGUAUGUUUACCCUCUUUAUGAAGUGAAUUA | 0.7
UUUUCCCACCUGUGAAUAUGUAAAACAAAACCAUUAUCUUUGAGGGAGUUUUUAAUACCAAUGACAGAACAGAGAUUUGUGUGCUCAUCUUAAGAGCCAGAGCCAUAUAA | 0.501
ACUCCCAAACCCAGCACUCCAGACUCGAGGGAAGCCAGCUUCCAAGAACUGGAAUGCGUACGUCUUUUGUGCCACCUUGUACAAAGCCGGCUGCCCAGCCCCAGCCUCAC | 0.245
UUCUAAUGACAAUGAAUGGAAUUAAUCACGCUACAGGUAUAGUAUUACAACUCAUGUUUACUUUUUAAAAUGAUUUAGACUGAUUUUCAGCUUUUAUUUCAUUACAAUUA | 0.945
AGGUCUACUCCAAAGUCCUCUCUGCCAUCUUCGGACCAUCCUGGCCCUACUUCUGUGUGCUCGAGCUGCCCCAGCCAUCACUGAGCCCACUCAGGACUGCUCCUGGAAGA | 0.336
UUUGUGAAUUUAAUGCUAUCUUGUCAAGGUACUUGCUUGUGUCUGAACUCUAGUGCACUUAUCAUUUUGUAGACCAUGUGGAAUUUAAUAAGAUACUUUUCCCCACUCCU | 0.582
UGGAUACAUGUUGAAAGAGCUCUUUGGUACACGGAAGUGACAUCUUUGGGGUCAGUGUUACGAGGUGGCCUGUGGAGGUCUUCCGGUCCUGUUGGGAUCAUUUGUGAAUA | 0.661
UUUUCCUACAUAAUGUGGUUAAAACUUGAAUUUGUGCUUCAGCUCUUCUGUACUUCUUCCUUCCUACAGGCAAAAACACAGGCUGAGACCUAUAGUUCCAUCAAAUUCUU | 0.349

Block 2
Target: Histone acetyltransferase KAT6A, both winged helices, GST fusion (KAT6A, Homo sapiens, UniProt Q92794, residues 1-181)
Technique: protein binding microarray
Molecule type: double-stranded DNA, one strand shown
Sample: in vitro
Concentration: not given
Notes: 8-mer, flanks averaged, mean of 2 arrays, mostly near background
Reference: not given
Reading: higher = stronger binding
Residues (chain): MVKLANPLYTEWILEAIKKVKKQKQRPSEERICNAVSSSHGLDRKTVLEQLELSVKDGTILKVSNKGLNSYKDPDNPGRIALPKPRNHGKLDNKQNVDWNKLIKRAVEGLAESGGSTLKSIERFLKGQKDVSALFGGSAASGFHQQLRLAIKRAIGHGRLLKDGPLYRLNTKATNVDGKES
Sequence | E-score
AATAGCAG | -0.239
AGCCCACG | -0.109
AAATACAG | -0.23
GGCTAAGA | -0.0683
CAATGAAG | -0.139
AGCTTTAG | -0.0932
CTCAGGGA | -0.312
CAGAAACA | 0.0102
CAAAAATC | -0.0555
GCCTGCGA | -0.0808
CGCTTAAC | 0.195
GGCGACCA | 0.0988
ATGTTAAC | 0.0794
AGACCCAT | -0.152
ACGGCTCA | 0.185
CAAACACA | -0.14
AGGCAGAA | -0.0717
ATGCACAA | -0.176
GAACAGCC | 0.00513
AGTGGCTA | -0.135
TAAGCTCA | -0.113
AAGCGAAC | 0.0983
AGGTGAGG | -0.0874
AGCGGTTG | 0.138
GGGGAGCA | -0.128

Block 3
Target: ABI1, truncated, D143A, DHFR fusion (Arabidopsis thaliana)
Technique: DHFR PCA, deep sequencing
Sample: yeast
Notes: methotrexate growth selection, single substitutions
Added: (+)-ABA 4.8 µM
Reference: wild-type fitted maximum
Reading: higher = stronger binding
Parent: PYL1, truncated, DHFR fusion (Arabidopsis thaliana); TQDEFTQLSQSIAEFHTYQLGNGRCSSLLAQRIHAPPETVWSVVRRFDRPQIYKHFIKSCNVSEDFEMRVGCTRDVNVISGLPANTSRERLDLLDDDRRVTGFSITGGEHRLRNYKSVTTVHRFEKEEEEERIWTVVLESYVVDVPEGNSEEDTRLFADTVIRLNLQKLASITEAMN
Substitution | relative binding score [%]
V100A | 67.9
T73H | 68.4
I79P | 15.5
K126Y | 73.3
E152N | 56.3
S87F | 12.3
T154Q | -9.38
D3E | 71.2
S171R | 87.4
F15M | 28.8
N22H | 78.5
Y141Q | -1.97
S80A | 4.75
T1S | 72.1

Block 4
Target: RING finger protein unkempt homolog, zinc fingers 1-6, GST-SBP tag (UNK, Homo sapiens, UniProt Q9C0B0, residues 30-357)
Chain of UniProt Q9C0B0 (30-357, looked up): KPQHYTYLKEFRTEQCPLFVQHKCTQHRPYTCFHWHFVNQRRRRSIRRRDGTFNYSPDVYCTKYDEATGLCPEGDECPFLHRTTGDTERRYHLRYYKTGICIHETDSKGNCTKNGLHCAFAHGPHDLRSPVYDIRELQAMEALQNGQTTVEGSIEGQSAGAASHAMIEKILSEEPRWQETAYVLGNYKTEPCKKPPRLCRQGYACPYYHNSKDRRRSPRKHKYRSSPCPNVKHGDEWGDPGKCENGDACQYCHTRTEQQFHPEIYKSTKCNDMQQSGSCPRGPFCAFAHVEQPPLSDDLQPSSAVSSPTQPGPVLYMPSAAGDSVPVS
Technique: RNA Bind-n-Seq
Molecule type: RNA
Sample: in vitro
Concentration: not given
Notes: RNA with constant flanks, human-mouse chimeric sites, ends assumed
Reference: input RNA pool
Reading: higher = stronger binding
Constant ends, left off below: GGGAGUUCUACAGUCCGACGAUC … CAACAGAGGAUUGAGCAUCA
Sequence | bound/input enrichment
UCAGGAACCCAGACAAACAUGAAUGUAAAUGAAGUCAUUAGCAACAGAGCAAUUGAAAUGUUAGGAGGUGAACUUGGCAGCAAGAUACCUGUGCACCCCAAUGAUCAUGUUAACAAAAGC | 0.325 ratio
AAAGAACUACUGAGGCAAGGCAGCAAAUUUAGGAGAGACAUUUCAACAAUAUUGAUAGAGUUAGGAUUCCAAAUUAAAAAAAAAACUAAGACAUUAUACAUCAACAAAGCCAAUGUGUGG | 16.2 ratio
CUGUGACCACAAGAUCCUACCUGAGUGGCAGCUGAAGUUGACUCCCUCUCCUUGCCUGAACCCCCCCCCACUGCCCCUUGAGUCCACAGUGUCGGCUGAGAUGUUGCCAGCAGACAGUUC | 0.669 ratio
GUGACUGGUGUUAAGAUUUCCCCUCAGCAAAGAAGUGCAGUAGUCACCAUAAUUCCAUCUGUGGUGAAUGCCAAUCAGAUUGUGGAGCUGGUCCCAGACCUCAGUUUAGACAUGGGAACU | 0.257 ratio
CUGUGACCACAAGAUCCUACCUGAGUGGCAGCUGAAGUUGACUCCCUCUCCUUGCCUGCCUAGUUUCCCACUGCCCCCCCAUCCCCCAGUGUCGGCUAUUCUCUGGUCUCUGCACGGUUC | 0.913 ratio
GCAAGAGAUGAUGAGGCGGCAGCUGUUGCCCUUUCCUCUCUCGUUCAUGCUUUGGAUGAGUUAAACAUGGUCGCCAUCGUCCGAUAUGCUUAUGACAAAAGAGCUAAUCCUCAAGUUGGU | 0.116 ratio
ACCAUUUUCGCGGUUCAGGCUUUGUGUGUAGUUCACUCUAUGUAUUAAAUUAUUAUUCUGCUUAGCUUAUAAUAAGGAUAAUUGCAUUUAAAGAGGUGAUCACUGAAUACUCUGAAACUU | 0.442 ratio
AUAAAAGCUAUGUUGAGUGGUCCAGGUCAGUUUGCUGAGAAUGAAACCAACGAGGUCAAUUUUAGAGAGAUCCCCUCACAUGUGCUAUCGAAAGUAUGCAUGUAUUUUACCUACAAGGUC | 0.334 ratio
GAAUCCUACUCAGGCGGAUUUUGCAACACCAAGCUCACAGCAGCAGCAUCUUAGUCACAGUAGGGUAGUUUUGGGGCAAUAUUGCCAGGGUUUUAUUCAUGUGCAGGUUUGGAAAAUGUA | 3.91 ratio
GUAGCUGGGACUACAGAAAUGCUGGUAAUUUCAGUCACUUGCUGAUGACUUCUGAUGACCUAGCAAAUGUUGGCAUUGUUGACUGCUCUGUGAAGACUUCUGAGGACCCACGUCUAAGGU | 0.131 ratio
UAUAAUAAUCAUGAAAUUCGUUCCGGGAAGCACAUUGGUGUCUGCAUCUCAGUUGCCAACAAUAGGCUUUUUGUGGGCUCGAUUCCUAAGAGUAAAACCAAGGAACAGAUUCUUGAAGAA | 1.13 ratio

Block 5
Target: Interferon regulatory factor 5, full length, phosphomimetic (IRF5, Homo sapiens, UniProt Q13568-2, residues 1-514, K96S/S451D/S453D/S456D/S462D)
Technique: protein-binding microarray
Molecule type: double-stranded DNA, one strand shown
Sample: in vitro
Concentration: 250 nM
Notes: 60-bp whole probe
Added: salmon DNA 0.4 mg/ml
Reference: random background probes
Reading: higher = stronger binding
Constant ends, left off below: GCCTAGCAC … GTCTTGATTCGCTTGACGCTGCTG
Sequence | log fluorescence [z-score]
GACGTACTGAGTATCGAGACGTGCTAG | 1.29
CCCTTAAAAGACGTGCCAATGTGCTAG | -0.155
TTAGGACTGGGTATTGGTTAGTGCTAG | -0.199
GGTCTGGCTGGCTCCTGCACGTGCTAG | -0.989
GACGGTTTCCTTTACCTGACGTGCTAG | 0.555
GACGATCTCAGCCTCGAGACGTGCTAG | -0.215
GAATGTCTTCCCCTCTCATTGTGCTAG | 0.249
TTGTTTCCATTTTCTGAATGCGTGCTA | 3.01
GACGGTTCCCTTTTCCTCACGTGCTAG | 0.399
GACGGCATCGGGTTTCGGGACGTGCTA | 1.57
TTAGGTTTCATACTGCTTTAGTGCTAG | 2
GACGATATCAGACGGGAGACGTGCTAG | 0.188
GACGAACTGGGGACTGCAGACGTGCTA | -0.524
GAGGGTCTCGGTCTCGGGACGTGCTAG | -0.126
CACTATTTAAGAACTATGCACGTGCTA | 0.373
TTAGGTTTCCGTTCCGGTTAGTGCTAG | 2.54
CTGTTTCCATCTCTCAAAAGGTGCTAG | 2.11
TTTGGTATCCTTCTCCTTTAGTGCTAG | 0.604
GACAAACTGGGGTTTCGAGACGTGCTA | 1.41

A few entries again (block 3):
Substitution | relative binding score [%]
F15M | 28.8
N22H | 78.5
Y141Q | -1.97
S80A | 4.75
T1S | 72.1
